Measured values of several laboratories.
Numbered parts are unrelated; each lists some results of a single study. Changes are numbered by the printed parent chain.
Chain of UniProt O15294 (whole entry, looked up): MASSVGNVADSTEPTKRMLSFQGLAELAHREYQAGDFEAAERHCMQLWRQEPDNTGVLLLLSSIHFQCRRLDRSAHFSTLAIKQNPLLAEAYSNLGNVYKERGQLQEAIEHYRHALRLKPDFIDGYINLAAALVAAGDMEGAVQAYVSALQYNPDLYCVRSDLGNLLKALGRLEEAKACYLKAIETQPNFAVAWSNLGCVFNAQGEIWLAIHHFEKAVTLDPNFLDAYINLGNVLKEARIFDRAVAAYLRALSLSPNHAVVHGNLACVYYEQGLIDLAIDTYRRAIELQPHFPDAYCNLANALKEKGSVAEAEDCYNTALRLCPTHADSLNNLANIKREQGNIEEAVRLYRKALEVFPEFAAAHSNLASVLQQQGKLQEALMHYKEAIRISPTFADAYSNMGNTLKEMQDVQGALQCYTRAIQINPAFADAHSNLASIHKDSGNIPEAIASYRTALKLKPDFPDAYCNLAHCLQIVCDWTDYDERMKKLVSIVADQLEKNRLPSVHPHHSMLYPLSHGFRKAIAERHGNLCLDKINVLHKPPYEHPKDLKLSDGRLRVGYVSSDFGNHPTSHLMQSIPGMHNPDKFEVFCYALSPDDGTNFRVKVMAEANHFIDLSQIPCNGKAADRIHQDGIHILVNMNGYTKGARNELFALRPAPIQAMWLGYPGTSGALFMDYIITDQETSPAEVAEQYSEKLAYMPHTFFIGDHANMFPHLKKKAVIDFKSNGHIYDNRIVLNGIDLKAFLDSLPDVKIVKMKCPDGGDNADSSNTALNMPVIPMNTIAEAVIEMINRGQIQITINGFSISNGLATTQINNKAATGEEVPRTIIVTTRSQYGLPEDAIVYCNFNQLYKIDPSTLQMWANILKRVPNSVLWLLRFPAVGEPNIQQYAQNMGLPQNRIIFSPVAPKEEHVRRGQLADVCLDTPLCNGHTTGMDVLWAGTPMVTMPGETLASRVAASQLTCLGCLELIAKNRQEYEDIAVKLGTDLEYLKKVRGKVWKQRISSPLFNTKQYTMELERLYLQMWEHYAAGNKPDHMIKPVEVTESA

Block 1
Target: ATF5, bZIP domain (human)
Method: DHFR protein complementation
Medium: yeast
Setting: single substitutions, most at no-binding floor
Baseline: wild-type JUN-FOS pair
Direction: higher = stronger binding
Parent: JUN, bZIP domain (human); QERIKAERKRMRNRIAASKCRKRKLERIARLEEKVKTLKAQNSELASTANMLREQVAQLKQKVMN; partner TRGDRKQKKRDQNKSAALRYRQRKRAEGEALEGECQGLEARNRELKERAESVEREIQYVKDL
| Variant | binding fitness [natural log] |
| --- | --- |
| A29N | -1.17 |
| A40S | -1.39 |
| R30V | -1.49 |
| E33S | -1.31 |
| A57R | -1.44 |
| S43N | -1.24 |
| A40R | -1.45 |
| E33C | -1.51 |

Block 2
Target: PABPC1L2, full length, GST fusion (mouse, UniProt A0ABA7IW68)
Method: RNAcompete
Form: RNA
Medium: in vitro
Tested at: 20 nM
Setting: 7-mer, probes averaged, single round
Baseline: mean of 7-mers
Direction: higher = stronger binding
Construct (chain): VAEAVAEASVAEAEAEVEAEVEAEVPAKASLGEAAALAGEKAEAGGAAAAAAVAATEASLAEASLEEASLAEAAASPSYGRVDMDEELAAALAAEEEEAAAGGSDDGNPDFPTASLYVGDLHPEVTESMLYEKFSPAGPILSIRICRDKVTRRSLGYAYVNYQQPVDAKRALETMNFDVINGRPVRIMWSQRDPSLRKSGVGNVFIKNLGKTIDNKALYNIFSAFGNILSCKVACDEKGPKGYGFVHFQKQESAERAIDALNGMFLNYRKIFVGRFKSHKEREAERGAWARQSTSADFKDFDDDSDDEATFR
| Oligonucleotide | 7-mer Z-score |
| --- | --- |
| CUCGGUA | -0.0627 |
| CGGCGAU | -0.0192 |
| CGUAGGC | -0.124 |
| UGAGUAC | -0.141 |
| CUCCGCA | -0.251 |
| UUAGGCU | -0.208 |
| GACCACA | -0.0808 |
| UUGGUGC | -0.228 |

Block 3
Target: Prothrombin, mature alpha-thrombin (F2, Homo sapiens, UniProt P00734)
Method: aptamer microarray, sandwich
Form: DNA with 2'F-ANA
Medium: in vitro
Tested at: 200 nM
Setting: whole 15-mer aptamer, many near background
With: Cy3 exosite-II aptamer, 400 nM
Direction: higher = stronger binding
Oligonucleotide: GGTTGGTGTGGTTGG
| Modification | mean fluorescence intensity |
| --- | --- |
| 2'F-ANA at 1 3 5 8 10 12 | 49.2 a.u. |
| 2'F-ANA at 7 8 14 | 280 a.u. |
| 2'F-ANA at 2 5 9 13 14 | 41.8 a.u. |
| 2'F-ANA at 2 3 5 7 8 9 10 11 12 14 15 | 53.6 a.u. |
| 2'F-ANA at 1 3 5 7 8 14 | 182 a.u. |
| 2'F-ANA at 1 2 5 6 7 10 11 13 15 | 88.4 a.u. |
| 2'F-ANA at 2 4 5 6 8 10 13 | 48.1 a.u. |
| 2'F-ANA at 2 3 4 5 7 8 13 15 | 95.1 a.u. |

Further values, each from its own experiment
| Molecule | target | test | system | setting | scale | endpoint | result |
| --- | --- | --- | --- | --- | --- | --- | --- |
| VTPKDRYLPKYTITF | UDP-N-acetylglucosamine--peptide N-acetylglucosaminyltransferase 110 kDa subunit (OGT, Homo sapiens, UniProt O15294) | binding, phage display NGS | peptide | concentration not given, panning round 2 | baseline: input library | enrichment fold change | 18.3 |
